Measured values from different studies.
Parts stem from different laboratories: compare values within a part only. Changes are numbered by the printed parent chain.

Sample 1
Target: Centromere-binding protein 1, full length, His-tagged (CBF1, Saccharomyces cerevisiae, UniProt P17106, residues 1-351)
UniProt P17106, sequence (whole entry, looked up): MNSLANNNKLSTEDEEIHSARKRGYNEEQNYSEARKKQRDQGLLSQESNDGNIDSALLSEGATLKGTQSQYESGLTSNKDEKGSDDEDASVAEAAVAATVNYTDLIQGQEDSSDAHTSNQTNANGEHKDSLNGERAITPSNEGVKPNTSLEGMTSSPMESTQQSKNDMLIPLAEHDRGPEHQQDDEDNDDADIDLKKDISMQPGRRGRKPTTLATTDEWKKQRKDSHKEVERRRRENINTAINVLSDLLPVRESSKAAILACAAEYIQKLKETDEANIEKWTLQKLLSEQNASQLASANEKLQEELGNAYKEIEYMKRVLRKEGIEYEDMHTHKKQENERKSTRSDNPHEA
Technique: competition protein-binding microarray
Form: double-stranded DNA, one strand shown
Matrix: in vitro
Tested at: 2 µM
Setting: whole 60-bp probe, lowest competitor level
Added: Pho4 competitor, 0.05 µM
Reading: higher = stronger binding
Measurement: fluorescence intensity
All sequences stand within: … GTCTTGATTCGCTTGACGCTGCTG
CATCATCATCTTCACCACGTGCAAAAAACCTTGTGC: 1410 a.u.
ACAACAAAGTCGAGTCACGTTTCTCGCAATTATTAC: 1340 a.u.
TCATAGAAGGAAAAGCACATGGTACCCAGGCAGAGT: 117 a.u.
CTTCTGTAAATTTGTCACGGAACTTGACGCGCCCCG: 83.4 a.u.
GACCAGGAAAAAGATAGCGTGCAAAGCAGGACGATA: 76.4 a.u.
AAAGCGGTAATTTGGTCCGTGGGTGCAGATATCTAT: 82.9 a.u.
GAAATTTTAACGCAGAACGTGCCGAAGAAAAAAAAA: 217 a.u.
AAATTACTAAGTTGGGTGGTGGGTGACGCCGTATGA: 67.5 a.u.

Sample 2
Target: Prothrombin, mature alpha-thrombin (F2, Homo sapiens, UniProt P00734)
Technique: aptamer microarray, sandwich
Form: DNA with 2'F-ANA
Matrix: in vitro
Tested at: 200 nM
Setting: whole 15-mer aptamer, many near background
Added: Cy3 exosite-II aptamer, 400 nM
Reading: higher = stronger binding
Measurement: mean fluorescence intensity
Strand: GGTTGGTGTGGTTGG
2'F-ANA at 3 5 7 8 9 10 13: 70.8 a.u.
2'F-ANA at 1 4 8 9 11 14 15: 77.9 a.u.
2'F-ANA at 1 3 5 9 10 15: 45.8 a.u.
2'F-ANA at 1 3 4 5 6 7 8 13: 53 a.u.
2'F-ANA at 3 5 7 8 9 10 12 13 15: 66 a.u.
2'F-ANA at 2 4 6 9 11 12 13 15: 254 a.u.
2'F-ANA at 2 3 6 7 9 12 13 14: 327 a.u.
2'F-ANA at 1 3 4 5 6 8 12: 142 a.u.

Further values, each from its own experiment
P1: viral docking peptide; KKAKRRLFTISDS
P1 F8A
normalised enrichment score (CCNB1, cyclin fold, Cln2 fusion (human); yeast growth competition, sequencing; yeast; weak parent motif; relative to: not given, higher = stronger binding): 1.51

KRT19 (Homo sapiens, UniProt P08727)
interaction screen (KRT7 (Homo sapiens, UniProt P08729); cross-linking MS; hits only): cross-linked

A few entries again (sample 2):
2'F-ANA at 3 5 7 8 9 10 13: 70.8 a.u.
2'F-ANA at 1 4 8 9 11 14 15: 77.9 a.u.
